# Measured values collected from several papers.
# Lines come from different studies, so protocols differ. ± marks the error that the study gave.
Structure (SMILES),assay,system,conditions,how to read,measurement,result
N[C@H](COc1ccccc1C(F)(F)F)c1ccccc1,,male Sprague-Dawley rat,"oral, 25 mg/kg",,AUC,1010 ± 227 ng·h/mL
Cc1ncc2c(n1)CN(C(=O)Nc1nc(-c3cccs3)ccc1N)C2,,"Sprague-Dawley rat, male","oral, 60 mg/kg daily, day 14, 14-day toxicity study",,AUC,28700 ± 7570 ng·h/mL
O=c1nc(NO)ccn1[C@@H]1O[C@H](CO)[C@@H](O)[C@H]1O,,"male Wistar rats, plasma","oral, 30 mg/kg",baseline: CFA-arthritic over normal rats,AUC ratio,1.7 fold
O=C(O)/C=C/c1ccc(NC(=O)C2(NC(=O)c3ccc4c(C5CCCCC5)c5n(c4c3)CCCCNc3ccccc3-5)CCCC2)cc1,,rat,dose not given,,AUC,3.6 µM·h
CC(=O)c1cnc(N)nc1N1CC[C@H]1c1nn2ccc(Cl)c2c(=O)n1-c1ccccc1,,"rat Wistar female collagen-induced arthritis, plasma","oral, 0.1 mg/kg twice daily",,AUC,684 ± 78 ng·h/mL
COc1cccc(-c2n[nH]c(SCc3ccccn3)n2)c1O,,"Sprague-Dawley rat, male and female, plasma","oral, 100 mg/kg of parent drug",,AUC,184 ng·h/mL
O=C(O)/C=C/c1ccc(NC(=O)C2(NC(=O)c3ccc4c(C5CCCCC5)c5n(c4c3)CCCc3ccccc3-5)CCCC2)cc1,,rat,dose not given,,AUC,0.3 µM·h
CC(=O)[CH](C(C)=O)[Pt-2]1([S+](C)C)[O]C(C)=CC(C)=[O+]1 (stereo not shown),refers to: platinum,rat,"iv, dose not given",baseline: blood over plasma,AUC ratio,~30%
CC(C)C[C@H](NC(=O)[C@H](CCCCN)NC(=O)CNC(=O)[C@H](CC(C)C)NC(=O)[C@@H](NC(=O)[C@@H]1CSSC[C@H](N)C(=O)N[C@@H](CO)C(=O)N[C@@H](CC(N)=O)C(=O)N[C@@H](CC(C)C)C(=O)N[C@@H](CO)C(=O)N[C@@H]([C@@H](C)O)C(=O)N1)C(C)C)C(=O)N[C@@H](CO)C(=O)N[C@@H](CCC(N)=O)C(=O)N[C@@H](CCC(=O)O)C(=O)N[C@@H](CC(C)C)C(=O)N[C@@H](Cc1c[nH]cn1)C(=O)N[C@@H](CCCCN)C(=O)N[C@@H](CC(C)C)C(=O)N[C@@H](CCC(N)=O)C(=O)N[C@H](C(=O)N[C@@H](Cc1ccc(O)cc1)C(=O)N1CCC[C@H]1C(=O)N[C@@H](CCCNC(=N)N)C(=O)N[C@H](C(=O)N[C@@H](CC(N)=O)C(=O)N[C@H](C(=O)NCC(=O)N[C@@H](CO)C(=O)NCC(=O)N[C@H](C(=O)N1CCC[C@H]1C(N)=O)[C@@H](C)O)[C@@H](C)O)[C@@H](C)O)[C@@H](C)O,ELISA,"hairless Sprague-Dawley rat, male, serum","subcutaneous, 3 µg, coating dissolved from microneedles",,AUC,6.72 ± 4.22 ng·h/mL
COc1c(O)cccc1-c1n[nH]c(SCc2ccccn2)n1,,"Sprague-Dawley rat, male and female, plasma","oral, 100 mg/kg of parent drug",,AUC,148 ng·h/mL

# For quick reference, copied from above:
Structure (SMILES),assay,system,conditions,how to read,measurement,result
COc1c(O)cccc1-c1n[nH]c(SCc2ccccn2)n1,,"Sprague-Dawley rat, male and female, plasma","oral, 100 mg/kg of parent drug",,AUC,148 ng·h/mL
